Experimental data gathered from unrelated publications.
Numbered parts are unrelated; each lists some results of a single study.

Set 1
Target: RNA binding protein fox-1 homolog 2, RRM domain, GST-SBP tag (RBFOX2, Homo sapiens, UniProt O43251-10, residues 100-194)
Method: RNA Bind-n-Seq
Molecule type: RNA
Sample: in vitro
Concentration: 365 nM
Setting: natural RNA segment, single round, ends assumed
Relative to: no-protein control
Direction: higher = stronger binding
Shared flanks, not repeated: GGGAGUUCUACAGUCCGACGAUC … UGGAAUUCUCGGGUGCCAA
Construct (chain): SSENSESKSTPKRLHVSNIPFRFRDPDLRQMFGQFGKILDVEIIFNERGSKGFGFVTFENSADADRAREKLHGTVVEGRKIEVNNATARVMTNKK
Oligonucleotide | RBNS enrichment (R)
AUUUUAUCCCUCACCUGUAGCAGCCAGUCCCGUUUCAUUUAGUCAUGUGACCACUCUGUCUUGUGUUUCCACAGCCUGCAAGUCAGUCCAGGAUGCUAACAUCUAAAAAU | 0.496
UACUACUAAUUUGCCUAUUGCCUAUCGCCUCUCUCUCCCAUUCAGACAAGUGUUUGUAGACUCUGAAGCCUAAUGUUACUCAUGACGUUUGCCUCAUUGCUUUGCUUAUU | 1.13
AUCUGCUCCAAAGAAAUCUAAGGCCGAUGGUCAGUGAGAGGAAGCUGACUAGCCCCUGGAUUCUUCUCCAGACCCCCCUGCUUCAGGAACACCCGCCAGGGCCCACCCCU | 0.301
AGGCAGAGACAGGAAGACCGCCGAAAGGUCAAGGAUAGCAUGGUCUACGUAUCGAGACUCCAGCCAGGGCUACGGUCCCAAGAUCCUAGGUUUUGGAUUUUGGGCUUUGG | 1.34
AGAGGUGUCCUCUGUCACGUGUGUAACAGCUGGAACACAGUGGCCGUCUUCCCUCGGCUCUUGUUGGUGUGUGCAUGUGCUGCGUGCACACCGGGUUGUAUGGCGUCAGC | 0.647
UGAAUCUGUACAGAGCCGUACAAACCGAAGUUCUGCCUCUGAUGUACUUUGUGAAUUUGUUUCUUUGAAUUUUCAUUUUUCAUUUAGUUUUCCUUGCAUACAAAUAAGCA | 1.91
UCCCCAAAUAAUGUUACACAUGGCAGUACUCAUGUUCCCCUUGAUUCCCAGGGACGUCGCGCCUUGUUUCUCCUCCCUCUCUGUGUCUGGGGAGGAGGAGCUGAGUCCUG | 3.08
AGAUGGUUGAAUGCGCUUGUACUAUAUGCUAAAAUAUGGAAAAGGAAAAAAAAAUCUCACAAGUUCUUUUGGAACUUGUUUCAAGCCAAAAACUCUCAAGAAAGCAAAUU | 0.299
UUGGACAUUACAAUGUAAAACACAUUUUCUUCAAACACGUUUUCCCUUUUGUUUCAAAAAAUGUAAUAUUUUCCCCCAAGCGUUUUAUAUUUAUGUAUUUUGUAUUCAAU | 0.504
GUGUUGGAUGUUGUGGGCCUGGAGUCAAUAGGAACAUACAAUGUGUGUAGUGUCCGCUAAGGUUGCAGUUGGUCCCCUGCCCUGACUUCAUGCCCCAAGCCUCAGCUAUU | 0.723
CAUUUCAUCUGAGGUUGCUGUCUUUUUGGUGGGGAGGGGUUUGGGGAACCCAUCAGGUAUGAGUGAGGAGCCGGUAGUGAAUUCAGUAUUGGCCAAGUCCAUGUUGUGUG | 1.87
GCAGGUGUGAUUGCUUUUUGCUCGUAGAUAUUAUCCUAAGUUGAAAUCCCCUAAAUCUCCCUUAGUAGCCUUUAAGUUCCCCCUUCCCUUUUUGGUAGCUGUUUUCUCUA | 1.09

Set 2
Target: Interferon regulatory factor 7, full length, phosphomimetic (IRF7, Homo sapiens, UniProt Q92985, residues 1-503, S471D/S472D/S475D/S476D/S477D/S483D/S484D/S487D)
Method: protein-binding microarray
Molecule type: double-stranded DNA, one strand shown
Sample: in vitro
Concentration: 2200 nM top
Setting: 60-bp whole probe
Added: salmon DNA 0.4 mg/ml
Relative to: random background probes
Direction: higher = stronger binding
Shared flanks, not repeated: GCCTAGCAC … GTCTTGATTCGCTTGACGCTGCTG
Target sequence (chain): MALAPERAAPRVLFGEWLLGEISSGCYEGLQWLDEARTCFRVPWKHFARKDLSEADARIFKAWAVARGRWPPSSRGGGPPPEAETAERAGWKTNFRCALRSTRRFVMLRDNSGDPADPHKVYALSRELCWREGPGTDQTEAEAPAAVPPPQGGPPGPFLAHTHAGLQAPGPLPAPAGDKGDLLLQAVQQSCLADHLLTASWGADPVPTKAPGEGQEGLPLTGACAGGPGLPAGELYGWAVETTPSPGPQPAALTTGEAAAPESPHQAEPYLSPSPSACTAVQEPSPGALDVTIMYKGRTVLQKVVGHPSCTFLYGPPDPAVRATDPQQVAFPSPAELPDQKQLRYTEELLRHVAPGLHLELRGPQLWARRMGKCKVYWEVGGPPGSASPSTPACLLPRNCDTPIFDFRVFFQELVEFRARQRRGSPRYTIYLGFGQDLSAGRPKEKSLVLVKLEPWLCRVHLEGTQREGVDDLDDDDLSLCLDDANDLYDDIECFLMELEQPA
Oligonucleotide | fitted relative affinity
TTACGTTCCCTTTTCCTTTAGTGCTAG | 4.43 z-score
TTAAGACTGGGTCTCGGTTAGTGCTAG | -0.0594 z-score
TTAGATTGCAGTCTCGATTAGTGCTAG | 0.289 z-score
CTCCCTTGAGGTTTTCTCTGGGTGCTA | -0.0791 z-score
GACGGTTTCGGGACTCGGGACGTGCTA | 4.8 z-score
TTTTTTTTCCTAATTGAACCGTGCTAG | 1.73 z-score
GACGGTATCCTTCTCCGGACGTGCTAG | 0.962 z-score
GAGGGTATCGGTCTCGGGACGTGCTAG | -0.522 z-score
TTAGTTATCGGACTGGGTTAGTGCTAG | 0.574 z-score
GACGATTTCGGGACTGGAGGCGTGCTA | 1.25 z-score
GACGGACTGCTTTTCCTGGCGTGCTAG | 0.359 z-score
GGTCCTCTGGGCTGTTTGGCCGTGCTA | -0.968 z-score
TCAGAACTGAGTTTCGATTAGTGCTAG | 3.81 z-score
GACGGTTTCCGTTCCCTGACGTGCTAG | 5.61 z-score
GACGACATCGGGACTGGAGACGTGCTA | -0.382 z-score
GACGATATCGGGACCGGAGACGTGCTA | -0.0118 z-score
TCATTTTACAATTTGCTACTGTGCTAG | 2.42 z-score
GACGGACTGGACCCTGGGGACGTGCTA | -1.13 z-score
TTAGGCTCCGGTTTCGGTTAGTGCTAG | 6.14 z-score
GACGGACTGGGTATGGGGACGTGCTAG | -0.727 z-score

Set 3
Target: RING finger protein unkempt homolog, zinc fingers 1-6, GST-SBP tag (UNK, Homo sapiens, UniProt Q9C0B0, residues 30-357)
Method: RNA Bind-n-Seq
Molecule type: RNA
Sample: in vitro
Concentration: not given
Setting: RNA with constant flanks, human-mouse chimeric sites, ends assumed
Relative to: input RNA pool
Direction: higher = stronger binding
Shared flanks, not repeated: GGGAGUUCUACAGUCCGACGAUC … CAACAGAGGAUUGAGCAUCA
Construct (chain): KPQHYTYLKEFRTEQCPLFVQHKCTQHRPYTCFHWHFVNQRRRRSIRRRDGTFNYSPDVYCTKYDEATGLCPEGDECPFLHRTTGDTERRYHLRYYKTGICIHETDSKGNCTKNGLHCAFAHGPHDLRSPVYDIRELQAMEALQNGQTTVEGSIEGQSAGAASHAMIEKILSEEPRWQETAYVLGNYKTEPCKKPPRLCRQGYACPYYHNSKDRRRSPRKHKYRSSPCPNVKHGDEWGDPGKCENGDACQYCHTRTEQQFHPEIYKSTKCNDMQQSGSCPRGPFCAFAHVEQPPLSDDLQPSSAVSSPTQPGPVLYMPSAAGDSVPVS
Oligonucleotide | bound/input enrichment
CCAAUUGUGGAGCAGUACUUGAAGACAAAGAAAAAUUCUAAUAAUUUAAUCAUCAAGUACAUUAGCUGCCGGCUGGUGACACUCAUCAUUAUACUGUUGGCAUGUAUCUACCUGGGCUAU | 0.32 ratio
GUGUCCUGCUUUCAACUUAAAUCACUGAGGCAUCUCUACUGUUCUGUGAGCAUCAGGACUGUAGCGCUUGCCACCACCAGAUGAGAACAGAAGCAGCCUUUCUGUGGAGGGUGGGAAUGA | 0.159 ratio
GGGACUGAUUCAUCCCAAGGACAGGCCACCCCAUUUGAUGCCUGGACUGAUGACAGUAUGGAAGGGCCUAGUCAAAAUUUUGAAGCUGAGUCAAUUCAGGAUGCCAUGCAUAUGGCAGAG | 0.247 ratio
UGUGCAUUAUGAUGCUUAGAUGGUUUUUGCAAAAGCAGACAUCGCUGCAAGGUAAUCACAAUAGAUAAAAGUGGUAUUUUAAACCUUUGAAAUAAAUGGAUGUAACUGUACCUUGGUACA | 0.676 ratio
UACUACUAUGAUGGUGAUAUUGGCAAUUAUUAUUAUGGCCAGGGUCAUCCCAUGAAGCCUCAUAGAAUCCGGAUGACUCAUAACUUGCUGCUAAAUUAUGGCUUAUACCGAAAAAUGGAA | 0.179 ratio
AACGUGGAGUUGAGUUCCUUGGCCCGGCUUCCCAGCUUGAAUAAACUUCGAAAAUUGGAGCUUAGUGACAAUAUAAUUUCUGGAGGCUUGGAAGUCCUGGCAGAGAAAUGUCCAAAUCUU | 0.179 ratio
CUGGGCUUCUCUUUUCUUUCUUUCCUUUAGGAAAAGCCUAAAGAUUAGGUUGUAAGAAAAACAGAAGCCAUGUUUCGAAGACCUGUGUUACAGGUACUUCGUCAGUUUGUAAGACAUGAG | 0.162 ratio
GGACAUCUGUCAAAUUGUAUUUCCCGUGUGAAACAAGUGAACACUCUGAUACACUUCAUCUGCUUGUACAUCUGUAUGAUAGAGAAACAGAAAUCUAUUAAUCCAAGCAAUGUGUCACUU | 0.209 ratio
GUAGCUGGGACUACAGAAAUGCUGGUAGUGCUCCGGCCUUGCUGAUGACUUCUGAUGUCCCAGCAAAUAAUGCCACAGUUGACUGCUGAGAAGAUACUUCUGAGGACCCACGUCUAAGGU | 0.0966 ratio
GUGCCCUUCUCGCUGCUCCUGCGGGGCAGCUGGGAACCAUUCCGGGACUGGUACCCUGCACACAGCCGCCUCUUCGAUCAAGCUUUCGGGGUGCCCCGGCUGCCGGAUGAGUGGUCGCAG | 0.0595 ratio
AAAGCCCUUGAAGAAAAAAAAAACUCGAACAGAUUUGUCAAGGGUAACCAGCUUGGAGUCUAGCAACUUGCCAAUGUGUUUACCAAUCUGGGGGCUUGUUUUUCUUUUCUUCUUUCAAAU | 0.387 ratio

Set 4
Target: Histone acetyltransferase KAT6A, winged helix 2, GST fusion (KAT6A, Homo sapiens, UniProt Q92794, residues 85-181)
Method: protein binding microarray
Molecule type: double-stranded DNA, one strand shown
Sample: in vitro
Concentration: not given
Setting: 8-mer, flanks averaged, mean of 2 arrays, mostly near background
Relative to: not given
Direction: higher = stronger binding
Residues (chain): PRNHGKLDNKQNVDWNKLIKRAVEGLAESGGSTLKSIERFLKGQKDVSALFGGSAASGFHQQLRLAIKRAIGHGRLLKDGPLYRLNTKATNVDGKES
Oligonucleotide | E-score
GGATTTCA | 0.078
AGGGTGCA | -0.124
GCACTGGA | 0.0645
AACGTGCT | -0.172
ATTTCCTG | 0.161
GAAGTACC | -0.0753
ATGGGCAC | 0.0189
CGTTTATA | 0.0394
ATACGCAA | 0.00564
CGTTTCGC | -0.0248
TAAGGGTA | -0.139
AACCTGTA | -0.138
ACCCCTCC | -0.0194
CTCGCATA | -0.0677
ACTGTTCA | -0.0937
CGGCTGCC | 0.204
AACGGTGC | 0.0661
ACGCGTGA | 0.0984

For quick reference, copied from above (set 4):
Oligonucleotide | E-score
AGGGTGCA | -0.124
GCACTGGA | 0.0645
AACGTGCT | -0.172
ATTTCCTG | 0.161
GAAGTACC | -0.0753
ATGGGCAC | 0.0189
CGTTTATA | 0.0394
ATACGCAA | 0.00564
CGTTTCGC | -0.0248
TAAGGGTA | -0.139
